Results pooled from the literature.
Parts stem from different laboratories: compare values within a part only. Values joined by “and” are separate records of one study, mostly repeats; a detail may differ. Positions count from the first letter of the parent shown.

Sample 1
Target: CCNB1, cyclin fold, Cln2 fusion (human)
Technique: yeast growth competition, sequencing
Sample: yeast
Setting: weak parent motif
Relative to: not given
Reading: higher = stronger binding
Starting sequence: FOXM1 docking peptide (human); PHLARPIKVESPP
| Variant | normalised enrichment score |
| --- | --- |
| V9A | 0.09 |
| P1A | -0.131 |
| S11A | -0.209 |
| P13A | -0.228 |
| H2A | -0.103 |
| L3A | 0.0822 |

Sample 2
Target: Interferon regulatory factor 5, full length, phosphomimetic (IRF5, Homo sapiens, UniProt Q13568-2, residues 1-514, K96S/S451D/S453D/S456D/S462D)
Technique: protein-binding microarray
Form: double-stranded DNA, one strand shown
Sample: in vitro
Concentration: 250 nM
Setting: 60-bp whole probe
Together with: salmon DNA 0.4 mg/ml
Relative to: random background probes
Reading: higher = stronger binding
Constant ends, left off below: GCCTAGCAC … GTCTTGATTCGCTTGACGCTGCTG
| Oligonucleotide | log fluorescence [z-score] |
| --- | --- |
| GTAGGTATCCTACTGCTTTAGTGCTAG | -0.242 |
| GACAAACTGAGTTTCGAGACGTGCTAG | 5.28 |
| GACGGACTGGACTATCGGTACGTGCTA | 3.85 |
| TTAGAACTGAGTATCGCTTAGTGCTAG | 2.21 |
| TTAGATTTCAGATCCGATTAGTGCTAG | 0.879 |
| CAGAAGCCAGAGAGGACAGGGTGCTAG | -0.453 |
| TTAGATATCAAACTGGATTAGTGCTAG | 0.157 |
| TTAGGACTGGGACAGGGTTAGTGCTAG | -0.57 |
| TCAGTTTTCATTTTATGACTGTGCTAG | 2.6 |

Sample 3
Target: Ras GTPase-activating protein-binding protein 1, RRM domain (G3BP1, Homo sapiens, UniProt Q13283)
UniProt Q13283, sequence (whole entry, looked up): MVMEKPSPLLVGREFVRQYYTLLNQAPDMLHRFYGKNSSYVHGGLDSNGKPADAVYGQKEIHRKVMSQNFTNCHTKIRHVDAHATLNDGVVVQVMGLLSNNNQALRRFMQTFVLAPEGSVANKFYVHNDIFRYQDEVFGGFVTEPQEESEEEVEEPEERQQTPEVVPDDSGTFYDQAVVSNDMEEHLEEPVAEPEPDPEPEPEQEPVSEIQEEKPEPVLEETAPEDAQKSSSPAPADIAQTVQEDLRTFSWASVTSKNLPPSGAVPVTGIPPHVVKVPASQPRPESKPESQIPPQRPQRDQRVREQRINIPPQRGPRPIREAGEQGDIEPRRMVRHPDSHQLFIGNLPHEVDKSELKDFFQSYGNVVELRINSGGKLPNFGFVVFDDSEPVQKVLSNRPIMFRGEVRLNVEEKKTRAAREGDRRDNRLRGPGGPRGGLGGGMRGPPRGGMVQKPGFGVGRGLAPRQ
Technique: RNA Bind-n-Seq
Form: RNA
Sample: in vitro
Concentration: 1 µM
Setting: whole 134-nt RNA, ends assumed
Together with: 150 mM KCl
Relative to: input library
Reading: higher = stronger binding
Constant ends, left off below: GGGAGUUCUACAGUCCGACGAUC … UGGAAUUCUCGGGUGUCAAGG
| Oligonucleotide | log2 enrichment |
| --- | --- |
| UCAAGUCCUGUGCUACACAUCGUAUGUACCGAAUCGGCCCGGCCCGGGCCCGGGGAAAGUAUUAUGUUACGCCGUUCGGAUCUGCACUUC | -0.569 |
| GUCCUGUGCUACACAUCGUAUGUACCGAAUCAAACCCAAAUUUUUUUAAACCCCCAAAAAAGUAUUAUGUUACGCCGUUCGGAUCUGCAC | -0.801 |
| GCAGGAAUUAAAAACAAAUGGAAAUGCUUCGGAUAGUGGCAGGGGUGGGGGUUGCUAAGGAAAGGGUGGGAUGGGAGUGGGUAAAGAGUU | 1.31 |
| ACCAUGCAGGUGGGCAUCUUUGGGAAGUGGGGCAAGGGGGGGGUAGGGAGGGGGGUAACACUUUGGGAACAGGUGGUCCCAGGUCGUUUC | 0.856 |
| UGGCCCUGGUGGCAUGCGGGGAGGAAGAGGUGGCCUCAUGGAUCGUGGUGGUCCCGGUGGAAUGUUCAGAGGUGGCCGUGGUGCAGACAG | 0.733 |
| AGUCCUGUGCUACACAUCGUAUGUACCGAAUCGGGGAGGGGUGGGGAAAAAAAGGGGAAAGUAUUAUGUUACGCCGUUCGGAUCUGCACU | 0.797 |
| GCAGGAAGUAAAAACAAAUGGAAAAAAUUCGGAUAGUGGCAGGGGUGGGGGUUGCUAAGGAAAGGGUGGGAUGGGAGUGGGUAAAGAGUU | 0.86 |
| UCAAGUCCUGUGCUACACAUCGUAUGUACCGAAUCGGGAAAGGAAAGGGGAAAGGAAAGUAUUAUGUUACGCCGUUCGGAUCUGCACUUC | -0.305 |
| ACCAUGCAGGUGGGCAUCUUUGGGAAGUGGGGCAAAAAGGGGAUAGGGAGGGGGGUAACACUUUGGGAACAGGUGGUCCCAGGUCGUUUC | -0.401 |
| CCUGUGCUACACAUCGUAUGUACCGAAUCGGUUUUUUGGGGUUUUUUGGGGUUUUUUGGGGAAAGUAUUAUGUUACGCCGUUCGGAUCUG | -0.263 |
| CUGUGCUACACAUCGUAUGUACCGAAUCGGGGAAAAAAAGGAAAAAAAGGGAAAAAAAGGGGAAAGUAUUAUGUUACGCCGUUCGGAUCU | 0.115 |
| GCAGGAAGUAAAACCAAAUGGAAAUGCUUCGGAUAGUGGCAGGGGUGGGGGUUGCUAAGGAAAGGGUGGGAUGGGAGUGGGUAAAGAGUU | 1.19 |
| UAACUUUAGAGGAGGAUCUGAUGGAUAUGGCAGUGGACGUGGAGUUGGGGAUGGCUAUAAUGGGUAUGGAGGAGGACCUGGAGGUGGCAA | -0.735 |

Other studies, line by line
| Substance | target | test | test system | conditions | how to read | endpoint | result |
| --- | --- | --- | --- | --- | --- | --- | --- |
| PhoQ, residues 284 288 289 292 302 303 SNGLAW | PhoP, residues 12 14 15 18 19 LWHSL (Escherichia coli, UniProt P23836) | Sort-seq, measured: YFP reporter | E. coli | PhoQ-PhoP variant library, together with: 10 µM Mg2+ | relative to: high Mg2+ state, higher = stronger signaling | fold induction | 15.5 and 7.08 |

Repeated from above (sample 3):
| Oligonucleotide | log2 enrichment |
| --- | --- |
| GUCCUGUGCUACACAUCGUAUGUACCGAAUCAAACCCAAAUUUUUUUAAACCCCCAAAAAAGUAUUAUGUUACGCCGUUCGGAUCUGCAC | -0.801 |
| GCAGGAAUUAAAAACAAAUGGAAAUGCUUCGGAUAGUGGCAGGGGUGGGGGUUGCUAAGGAAAGGGUGGGAUGGGAGUGGGUAAAGAGUU | 1.31 |
| ACCAUGCAGGUGGGCAUCUUUGGGAAGUGGGGCAAGGGGGGGGUAGGGAGGGGGGUAACACUUUGGGAACAGGUGGUCCCAGGUCGUUUC | 0.856 |
